# Experimental data gathered from unrelated publications.
# Numbered parts are unrelated; each lists some results of a single study. Changes are numbered by the printed parent chain.

# Study 1
# Target: RNA binding protein fox-1 homolog 2, RRM domain, GST-SBP tag (RBFOX2, Homo sapiens, UniProt O43251-10, residues 100-194)
# Technique: RNA Bind-n-Seq
# Form: RNA
# Sample: in vitro
# Tested at: 365 nM
# Setting: natural RNA segment, single round, ends assumed
# Reference: no-protein control
# Reading: higher = stronger binding
# Constant ends, left off below: GGGAGUUCUACAGUCCGACGAUC … UGGAAUUCUCGGGUGCCAA
# Construct (chain): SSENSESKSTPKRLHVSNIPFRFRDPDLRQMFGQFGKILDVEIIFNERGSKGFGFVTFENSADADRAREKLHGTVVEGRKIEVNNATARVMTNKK
Strand,RBNS enrichment (R)
GGGGGUUGGGUAUCACAGUGUAGCUCAUGACUUUGUUCCCUCACCCCACCCCCAAUCCAAAAGGUUCAGAGUCCCCCGAGAUGACACUUCCUCCAGCAUAACCCCAGUUG,2.4
GAGGCACCCGACUACCACCACUCGGAAAGCCGCUAGUCCAGAUCGACUAGGGAGAGGCUUAGAUACUUUAGUGUAUUUAAAGAGCAUUUCAGUUAACUUUUUCAGCUAUU,0.275
UGGGGGGUGGGAGAGCGAUUACUCUGUGUUUAGGUUUGUCACGCACAUUCUUUGCAUCUGUAUUGUACCAGCUUUAUAGCACUGUUUCAUGCCAAAGUUCUGAUGACGUA,1.06
AUGUUAAUUAGAAGGGGCUUUUGUACUCCAUUAAUGCUGUAUUUAGUUUACUAAUAGCUGCUCAGUUUGUCAGCUGAUAGUCUGAAUACUAUCAAAAACUAAGAACAUAG,0.385
CCUCCCACCUCUCUCCAGGCUGGUGUUGACUGGGCCCGGAAAUCAAUCCCCAGCACUUACUUCUCACUGCAAAGGAGCAAAACAACAAAAACAGCAAGACCAGAAGUGCC,0.457
AGAUCCCCCUGCCUCAGCCUCCAGAGUGCUGGGAUAAAAGGUGUGGGCCACCAAGCUAGGCUAAGAAAGAGGUUUUAAUUGUGGUUUCUUUCCUGCAGUGCUGUCCCCAA,0.479
AAUGAUUUUCAAACUUUACAGCUUCAGAAUCACCCAGAGGGCUUGUUAAGACACUACUUGGUGGACCUCAACCCCAGAACCACCAAAUUUGGCAUUUCUAAGUUCCUAGG,0.211
UGAGCAAUGAGCAAAGCAAUAUCAUAUCCAUGUUUAUGUCCCUCCUCCUUCCCUUGCUCCUCCUCUGGAGAAGCACUAAUUACACAGGGGAUAGCAAAGUAGCACUUUAC,0.321

# Study 2
# Target: ABI1, truncated, D143A, DHFR fusion (Arabidopsis thaliana)
# Technique: DHFR PCA, deep sequencing
# Sample: yeast
# Setting: methotrexate growth selection, single substitutions
# Added: (+)-ABA 58 µM
# Reference: wild-type fitted maximum
# Reading: higher = stronger binding
# Parent: PYL1, truncated, DHFR fusion (Arabidopsis thaliana); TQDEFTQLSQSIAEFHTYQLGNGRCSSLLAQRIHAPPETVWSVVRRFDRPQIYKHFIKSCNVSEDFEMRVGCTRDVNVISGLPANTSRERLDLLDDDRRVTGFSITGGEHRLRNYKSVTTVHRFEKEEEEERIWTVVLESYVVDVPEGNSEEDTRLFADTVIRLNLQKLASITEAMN
Substitution,relative binding score [%]
I12H,39.1
R111K,72.9
Q51V,21.2
N114F,12.3
I52C,81.1
E109N,94.6
G107S,69.9
I52D,91
Q2V,85.2
V76D,0.158
E64N,84.6
R32I,85.1
D159K,20.9
S104I,31.8
R45L,-7.29
K168P,-7.34
P50E,1.71

# Study 3
# Target: CCNA2, cyclin fold, Cln2 fusion (human)
# Technique: yeast growth competition, sequencing
# Sample: yeast
# Setting: strong parent motif
# Reference: not given
# Reading: higher = stronger binding
# Parent: CUX1 docking peptide (human); SRIRRELFIEEIQ
Substitution,normalised enrichment score
R5A L7A,-0.254
I9A,4.09
Q13A,4.6
I3A,5.71
F8L,0.417
I12A,3.52
R5K F8L,0.44
E10A,3.7
R5A,-0.749
E6A,4.64

# Study 4
# Substance: PhoQ, residues 284 288 289 292 302 303 TNSAEL
# Technique: Sort-seq
# Measured: YFP reporter
# Sample: E. coli
# Setting: PhoQ-PhoP variant library
# Added: 10 µM Mg2+
# Reference: high Mg2+ state
# Reading: higher = stronger signaling
target,fold induction
"PhoP, residues 12 14 15 18 19 TQAML (Escherichia coli, UniProt P23836)",16.9
"PhoP, residues 12 14 15 18 19 NQCAL (Escherichia coli, UniProt P23836)",12.3
"PhoP, residues 12 14 15 18 19 LHTVL (Escherichia coli, UniProt P23836)",24.9

# A few entries again (study 3):
Substitution,normalised enrichment score
Q13A,4.6
I3A,5.71
I9A,4.09
I12A,3.52
F8L,0.417
